Measured values collected from several papers.
Parts stem from different laboratories: compare values within a part only.

Set 1
Target: Interferon regulatory factor 5, full length, phosphomimetic (IRF5, Homo sapiens, UniProt Q13568-2, residues 1-514, S451D/S453D/S456D/S462D)
Technique: protein-binding microarray
Form: double-stranded DNA, one strand shown
Sample: in vitro
Concentration: 940 nM top
Notes: 60-bp whole probe
Added: salmon DNA 0.4 mg/ml
Reference: random background probes
Direction: higher = stronger binding
Strand | fitted relative affinity
GCCTAGCACTTAGGTATCGGTTTCGGTGAGTGCTAGGTCTTGATTCGCTTGACGCTGCTG | 11.7 z-score
GCCTAGCACGACGGTTTCCTTATCCTGCCGTGCTAGGTCTTGATTCGCTTGACGCTGCTG | 1.3 z-score
GCCTAGCACGACGGTATCCTTCTACTGACGTGCTAGGTCTTGATTCGCTTGACGCTGCTG | 0.851 z-score

Set 2
Target: Sal-like protein 4, full length isoform A (SALL4, Homo sapiens, UniProt Q9UJQ4, residues 1-1053)
Sequence of UniProt Q9UJQ4 (whole entry, looked up): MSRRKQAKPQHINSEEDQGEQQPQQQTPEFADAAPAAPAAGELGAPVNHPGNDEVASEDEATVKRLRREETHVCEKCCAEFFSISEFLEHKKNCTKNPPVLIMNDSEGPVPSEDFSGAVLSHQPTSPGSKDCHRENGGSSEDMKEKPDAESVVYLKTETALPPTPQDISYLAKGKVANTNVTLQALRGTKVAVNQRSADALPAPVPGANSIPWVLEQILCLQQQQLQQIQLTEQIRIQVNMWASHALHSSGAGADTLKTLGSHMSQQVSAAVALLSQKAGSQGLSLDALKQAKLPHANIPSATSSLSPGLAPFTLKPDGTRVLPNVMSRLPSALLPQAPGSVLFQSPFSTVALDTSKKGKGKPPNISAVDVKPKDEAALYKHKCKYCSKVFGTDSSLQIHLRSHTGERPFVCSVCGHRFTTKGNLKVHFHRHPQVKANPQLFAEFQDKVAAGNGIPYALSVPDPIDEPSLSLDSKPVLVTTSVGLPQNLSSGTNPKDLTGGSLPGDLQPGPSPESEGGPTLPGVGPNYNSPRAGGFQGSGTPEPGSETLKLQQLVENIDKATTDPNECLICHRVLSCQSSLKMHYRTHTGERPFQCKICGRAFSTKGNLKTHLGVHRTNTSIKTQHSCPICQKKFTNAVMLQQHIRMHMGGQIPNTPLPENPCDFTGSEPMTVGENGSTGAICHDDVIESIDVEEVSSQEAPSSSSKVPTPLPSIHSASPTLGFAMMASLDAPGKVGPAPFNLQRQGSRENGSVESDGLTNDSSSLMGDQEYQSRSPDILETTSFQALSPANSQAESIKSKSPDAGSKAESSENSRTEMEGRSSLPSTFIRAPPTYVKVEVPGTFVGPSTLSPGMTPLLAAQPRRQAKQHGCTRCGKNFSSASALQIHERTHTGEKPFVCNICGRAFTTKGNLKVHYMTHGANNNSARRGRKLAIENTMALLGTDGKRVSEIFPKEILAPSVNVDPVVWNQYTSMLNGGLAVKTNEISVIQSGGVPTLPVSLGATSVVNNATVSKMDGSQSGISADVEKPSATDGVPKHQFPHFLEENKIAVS
Technique: universal PBM
Form: double-stranded DNA, one strand shown
Sample: in vitro
Concentration: 600 nM
Notes: 8-mer, flanks averaged, mean of replicates
Direction: higher = stronger binding
Strand | E-score
AGTCAGGG | -0.169
ACCAAGGG | -0.073
ACAACGAT | 0.173

Set 3
Target: Histone acetyltransferase KAT6A, winged helix 2, GST fusion (KAT6A, Homo sapiens, UniProt Q92794, residues 85-181)
Technique: protein binding microarray
Form: double-stranded DNA, one strand shown
Sample: in vitro
Concentration: not given
Notes: 8-mer, flanks averaged, mean of 2 arrays, mostly near background
Reference: not given
Direction: higher = stronger binding
Construct (chain): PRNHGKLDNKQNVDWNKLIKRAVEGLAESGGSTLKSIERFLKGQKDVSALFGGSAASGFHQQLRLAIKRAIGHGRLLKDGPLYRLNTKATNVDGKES
Strand | E-score
GTAATCAC | -0.124
ACGCCAAC | 0.0402
AGGAATGA | 0.0457

Further values, each from its own experiment
Molecule | target | assay | test system | conditions | how to read | endpoint | value
PhoQ, residues 284 288 289 292 302 303 GANMMA | PhoP, residues 12 14 15 18 19 DLLYY (Escherichia coli, UniProt P23836) | Sort-seq, refers to: YFP reporter | E. coli | PhoQ-PhoP variant library, added: 10 µM Mg2+ | reference: high Mg2+ state, higher = stronger signaling | fold induction | 3.05

Excerpt of the above (set 1):
Strand | fitted relative affinity
GCCTAGCACTTAGGTATCGGTTTCGGTGAGTGCTAGGTCTTGATTCGCTTGACGCTGCTG | 11.7 z-score
